Published values collected from several papers.
A part holds a random share of what one study measured. Changes are numbered by the printed parent chain.

Sample 1 — method: RNA Bind-n-Seq; molecule type: RNA; medium: in vitro; concentration: 365 nM; baseline: no-protein control; reading: higher = stronger binding; quantity: RBNS enrichment (R)
Target: RNA binding protein fox-1 homolog 2, RRM domain, GST-SBP tag (RBFOX2, Homo sapiens, UniProt O43251-10, residues 100-194)
Notes: natural RNA segment, single round, ends assumed
Target sequence (chain): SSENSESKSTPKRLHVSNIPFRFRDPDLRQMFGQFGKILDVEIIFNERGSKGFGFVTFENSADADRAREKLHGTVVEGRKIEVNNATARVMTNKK
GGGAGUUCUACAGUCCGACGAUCACAAAUUAGAGGGAAAUUUGUCCUGUUAACCACAUGCUAUUAUUCCUUCAUUCAGGGUUACUGACCUACUGUCCAGGGCUUGAUAGGUAAGGCAGCUUGUUGGCCCUUGUUGGAAUUCUCGGGUGCCAA: 0.527
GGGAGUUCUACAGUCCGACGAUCCUCCUUCUGGCUCUGAUGUCCUGUGACUGUAGUGUCACCACCUCCCCUGGGAGUCAGACCAGGGACUCCUCAGGGAGUGAAAUGUGCUUCAGGACACACAGGACUCGAGCUGGAAUUCUCGGGUGCCAA: 0.283
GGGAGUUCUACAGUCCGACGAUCAUGUAAACUAUUCUUUAGAAAAAUGCAUUCACUCUUUAAUAAAAGUAUGUUUGUGUUAAUAAAGCCAGGGCGUUUCACACUUUAUAUGAACUUCCCUUUUUUUAAGAAAUUGGAAUUCUCGGGUGCCAA: 0.43
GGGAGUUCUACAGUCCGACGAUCAUCUUAAGUAUUGUAAGCUGCUGUGUAUGGAUCUCAUUGUAGUCAUACUUGUUUUCCCCAGAUGAGGCACUUGGUGAAUAAAGGAUGCUGGGAAAACUGUGUGUUAUAUUUGGAAUUCUCGGGUGCCAA: 1.7
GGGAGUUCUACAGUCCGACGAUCCAGUGUUAUACCUAAAGCUAAAAAAAAGCAAGGGUUUGUCAUAGAGGGAACCUCUAAAUAAUUUCAGGGGUAGGGGAGAUGUUGUCAAUAGGAAAUGGGAUAAAAUAUCAUGGAAUUCUCGGGUGCCAA: 0.834
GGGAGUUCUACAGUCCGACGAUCGAUUUUGUUAGAGUUCAGAGCACAGCAUCACUCUGAAGGAGUCUGUCUUAUAAAUACAUAAUUACUGUUUAAGAUGUACACUUUGCUAUAGUUACAGAACCAUUGUGAAUUGGAAUUCUCGGGUGCCAA: 0.368
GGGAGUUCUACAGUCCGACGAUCCUUAUUUGUGCAGUCUGACUACACAGAGGCGUAUAAUCCCAAAAUGAAACGUGAUGAACGCACCUUAAUAAAUCCAGAUAUUAAAGUUGUAGACUUUGGUAGUGCAACAUUGGAAUUCUCGGGUGCCAA: 1.29
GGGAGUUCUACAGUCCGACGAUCUGAGCCUAGGGAGCUGGGAAAACAGUUGGGCCUAGUCUGUUUUUGAAUUGCAUUGCAUUGAGUUGUACCGGUAUUGCACAGCCCUGCGUGUGAGCCAGAUGUAACACUCCUGGAAUUCUCGGGUGCCAA: 4.53
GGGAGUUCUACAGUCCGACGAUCUUCCGGGAGCUGGUGACAGCCUUGGGCCUUUCAGUCCCAAAGCGGCCGAUGGGAGUCUCCCUCCGACUCCAGAUAUGAACAGGGCCCAGGCCUGGAGCGUUUGCUGUGCCUGGAAUUCUCGGGUGCCAA: 0.63
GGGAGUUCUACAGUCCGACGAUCGGGGAGAGACUGGACUCUAGCCAGGCAGUCUUGUGCCGGCACGCACAGCUGCACGCACGCAUGCAAGUUCACAGCGCAGGCACCCCCAGCUCGCCUGGAUCUGACUCCAAUGGAAUUCUCGGGUGCCAA: 10
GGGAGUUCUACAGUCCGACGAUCCAGAAGAAACCAGCACCUCUUUCCCGUGGCUCCUGUGUUCAGAAUGUGGUAUUGGCUCUGGCCCAGCCUUCUCCCCUGUUACCCAUAAUUCUUGCCUCUUUCCAUAAUCCUGGAAUUCUCGGGUGCCAA: 1.06
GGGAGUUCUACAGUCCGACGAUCAAGGUACUGGAAAACCUUCCACAUGCCCAACCUGAGACCUGUUCCCCAUCGCUACCAUUUGGCCAAACAACCGGCUACAAUGCUCUUCCUCUUCUGGAAUGUUGCUGACCUGGAAUUCUCGGGUGCCAA: 0.242

Sample 2 — target: CCNE2, cyclin fold, Cln2 fusion (human); method: yeast growth competition, sequencing; medium: yeast; notes: weak parent motif; baseline: not given; reading: higher = stronger binding; quantity: normalised enrichment score
Parent: MASTL docking peptide (human); PMIAKNLMCELDE
PMIAKCLMCELDE [N6C]: 0.117
PMIAKNTMCELDE [L7T]: -0.184
PMILKNLMCELDE [A4L]: -0.0468
PMIAKILMCELDE [N6I]: 0.133
PMIAKNLMCDLDE [E10D]: -0.312
PMIAMNLMCELDE [K5M]: -0.311
PMIAKNLWCELDE [M8W]: -0.00011
PMIAKYLMCELDE [N6Y]: -0.00503
PMIKKNLMCELDE [A4K]: 0.778
PMIAQNLMCELDE [K5Q]: -0.123
PMIAKNLPCELDE [M8P]: -0.187
PMIAKNLMIELDE [C9I]: -0.48
PMIAKNLMCNLDE [E10N]: 0.171
PNIAKNLMCELDE [M2N]: -0.0481
PMIAKNLMEELDE [C9E]: -0.558
PMIAKNCMCELDE [L7C]: -0.14

Sample 3 — method: universal PBM; molecule type: double-stranded DNA, one strand shown; medium: in vitro; concentration: 600 nM; reading: higher = stronger binding; quantity: E-score
Target: Sal-like protein 4, full length isoform A (SALL4, Homo sapiens, UniProt Q9UJQ4, residues 1-1053)
UniProt Q9UJQ4, sequence (whole entry, looked up): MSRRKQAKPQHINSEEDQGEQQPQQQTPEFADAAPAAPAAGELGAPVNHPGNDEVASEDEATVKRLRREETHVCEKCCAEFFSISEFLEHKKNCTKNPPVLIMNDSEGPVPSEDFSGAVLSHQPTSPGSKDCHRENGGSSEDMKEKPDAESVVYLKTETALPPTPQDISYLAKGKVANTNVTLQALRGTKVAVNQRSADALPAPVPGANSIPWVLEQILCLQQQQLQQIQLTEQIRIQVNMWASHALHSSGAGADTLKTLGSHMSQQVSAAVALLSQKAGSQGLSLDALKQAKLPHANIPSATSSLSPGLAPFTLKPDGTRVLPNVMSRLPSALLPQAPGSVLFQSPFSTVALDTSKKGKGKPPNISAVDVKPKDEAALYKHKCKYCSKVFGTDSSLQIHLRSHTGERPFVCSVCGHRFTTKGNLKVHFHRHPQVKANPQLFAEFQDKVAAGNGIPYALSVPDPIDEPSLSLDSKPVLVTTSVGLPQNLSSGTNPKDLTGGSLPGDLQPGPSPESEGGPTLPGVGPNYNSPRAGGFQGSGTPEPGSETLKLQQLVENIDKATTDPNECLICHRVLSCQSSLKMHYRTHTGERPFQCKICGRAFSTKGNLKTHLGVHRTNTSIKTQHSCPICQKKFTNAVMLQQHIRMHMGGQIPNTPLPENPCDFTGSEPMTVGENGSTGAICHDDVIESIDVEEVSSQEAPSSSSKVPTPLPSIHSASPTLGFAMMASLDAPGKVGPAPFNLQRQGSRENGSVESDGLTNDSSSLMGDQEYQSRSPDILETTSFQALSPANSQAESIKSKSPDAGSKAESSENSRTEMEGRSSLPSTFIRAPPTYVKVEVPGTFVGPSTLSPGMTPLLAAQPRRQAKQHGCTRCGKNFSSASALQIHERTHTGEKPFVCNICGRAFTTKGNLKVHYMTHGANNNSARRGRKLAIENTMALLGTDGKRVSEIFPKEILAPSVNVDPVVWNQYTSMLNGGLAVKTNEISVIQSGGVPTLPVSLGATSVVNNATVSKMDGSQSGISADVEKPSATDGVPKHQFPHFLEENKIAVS
Notes: 8-mer, flanks averaged, mean of replicates
ACCAGAGC: -0.137
TAACACAA: 0.247
ACTGTAAC: 0.0804
ATGATTTC: 0.323
ACCCGGTA: -0.184
CCCCTACA: -0.135
GTTGCGCA: -0.128
CCAGAAGA: -0.0125
ATGATGTC: 0.089
GAGCCTGA: -0.195
CACCCATA: -0.139
ACCCAAGC: -0.309
GGTAATAA: 0.351
GAGAGGCC: -0.254
ACGGGCCA: -0.227
AACCACCC: -0.316
GCATCTCA: 0.108
ACGAGACT: 0.0183
CAGGTCAC: -0.254
CGAAGGTC: -0.135
CTTTTAGA: 0.0938
AGTTCCAC: -0.00811
ATCATGAC: 0.102
CAGCCAGG: -0.291
ACGGACGG: -0.347

Sample 4 — method: protein binding microarray; molecule type: double-stranded DNA, one strand shown; medium: in vitro; concentration: not given; baseline: not given; reading: higher = stronger binding; quantity: E-score
Target: Histone acetyltransferase KAT6A, both winged helices, GST fusion (KAT6A, Homo sapiens, UniProt Q92794, residues 1-181)
Notes: 8-mer, flanks averaged, mean of 2 arrays, mostly near background
Target sequence (chain): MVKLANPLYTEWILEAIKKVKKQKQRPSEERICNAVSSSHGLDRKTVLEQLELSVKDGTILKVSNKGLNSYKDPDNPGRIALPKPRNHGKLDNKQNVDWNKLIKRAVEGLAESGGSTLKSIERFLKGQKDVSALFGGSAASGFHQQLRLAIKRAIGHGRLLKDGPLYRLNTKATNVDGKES
GAATCTGA: -0.138
GCACGCGC: 0.288
CCTTGAGC: 0.0238
AGTGGCAT: -0.185
AGCTGTTC: -0.0603
CTATCTAA: -0.0577
CATACTTA: -0.16
GACCTTTA: -0.0423
TTCCCGAA: 0.0395
CAGAAGAC: -0.145
TACGAGAA: 0.0166
CATGCATG: -0.0652
CAGTCTCG: -0.0257
AGTCCGAT: 0.0927
ATGCTTTA: -0.0644
ATTACTTC: -0.159
AAATCGGG: -0.00522
AGAAGTTG: -0.246
CGAGCGTA: 0.251
CAGGGATG: -0.0523
GGAGTGCC: 0.00624
GAAAAAAA: -0.0576

Sample 5 — method: RNAcompete; molecule type: RNA; medium: in vitro; concentration: 20 nM; notes: 7-mer, probes averaged, single round; baseline: mean of 7-mers; reading: higher = stronger binding; quantity: 7-mer Z-score
Target: PABPC1L2, full length, GST fusion (mouse, UniProt A0ABA7IW68)
Target sequence (chain): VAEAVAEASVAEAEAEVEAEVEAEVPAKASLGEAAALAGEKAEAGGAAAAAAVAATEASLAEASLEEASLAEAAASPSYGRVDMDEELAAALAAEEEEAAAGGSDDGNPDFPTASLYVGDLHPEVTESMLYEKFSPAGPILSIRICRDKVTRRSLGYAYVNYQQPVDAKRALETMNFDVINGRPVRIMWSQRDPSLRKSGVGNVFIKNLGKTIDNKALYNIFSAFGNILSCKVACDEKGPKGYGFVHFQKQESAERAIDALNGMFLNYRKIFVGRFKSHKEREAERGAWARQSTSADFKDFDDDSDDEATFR
GCGCAGG: 0.216
CGAGAGU: -0.141
AGUGACG: 0.113
UCACGUU: -0.311
GACAUGA: 0.0424
GUGCUCG: -0.351
GCUGUCA: -0.15
AUCGAAU: 0.0732
CACACGC: -0.193
GGCCCAU: -0.0754
AUUCUGC: -0.271
CCCUACC: -0.44
UGUUAUC: -0.251
CGCUAUC: -0.206
CCAGAAU: -0.139
GAUAUAA: 0.133
GGGAAUU: -0.0482
GGGACUC: -0.0101
UGUGACC: -0.157
UUUCCGU: -0.505
UAUACAU: -0.0917
CCCAGAC: -0.255
UACUCGU: -0.396
UAAUCAA: 0.095
ACGGGCA: 0.321

Sample 6 — method: protein-binding microarray; molecule type: double-stranded DNA, one strand shown; medium: in vitro; concentration: 2200 nM top; notes: 60-bp whole probe; with: salmon DNA 0.4 mg/ml; baseline: random background probes; reading: higher = stronger binding; quantity: fitted relative affinity; constant ends, left off below: GCCTAGCAC … GTCTTGATTCGCTTGACGCTGCTG
Target: Interferon regulatory factor 7, full length, phosphomimetic (IRF7, Homo sapiens, UniProt Q92985, residues 1-503, S471D/S472D/S475D/S476D/S477D/S483D/S484D/S487D)
UniProt Q92985, sequence (whole entry, unmodified, looked up): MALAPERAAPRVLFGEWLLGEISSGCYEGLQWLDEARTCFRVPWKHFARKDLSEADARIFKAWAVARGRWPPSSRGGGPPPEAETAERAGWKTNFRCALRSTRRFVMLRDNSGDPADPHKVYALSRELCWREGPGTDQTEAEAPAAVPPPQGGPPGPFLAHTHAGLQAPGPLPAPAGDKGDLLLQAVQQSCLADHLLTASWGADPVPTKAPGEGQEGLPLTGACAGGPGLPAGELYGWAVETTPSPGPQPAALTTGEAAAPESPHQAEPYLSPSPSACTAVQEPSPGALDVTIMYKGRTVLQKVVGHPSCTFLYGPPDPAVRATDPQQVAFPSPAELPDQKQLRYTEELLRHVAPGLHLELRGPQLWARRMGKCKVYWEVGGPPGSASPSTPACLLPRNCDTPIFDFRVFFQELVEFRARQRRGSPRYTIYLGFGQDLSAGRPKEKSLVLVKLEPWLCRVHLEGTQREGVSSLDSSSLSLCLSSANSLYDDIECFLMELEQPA
TCAAGTTTTTATTTTCTACTGTGCTAG: 1.99 z-score
GACGGTTTCGGGACTGGGAACGTGCTA: 3.61 z-score
TTAGGTTTCCTTATCCTTTAGTGCTAG: 2.09 z-score
GACGGAGTGGGACTGGGGACGTGCTAG: -0.822 z-score
GACGGTTTCGGTTTCGGTACGTGCTAG: 15.4 z-score
TCATTTTTTTTTCTACTACTGTGCTAG: 2.21 z-score
TTTGGACTGGGGTTTCGGTTAGTGCTA: 3.19 z-score
TTAGATATCGGGATTCGATTAGTGCTA: 0.31 z-score
TTAGCTTTCGGGACTGGGTTAGTGCTA: 3.44 z-score
GACGGTTTCGGTTTCTGGACGTGCTAG: 13.7 z-score
TTAGGTATCGACTTTCAGTTAGTGCTA: 1.65 z-score
TTAGGTATCGGCCTCGGTTAGTGCTAG: 0.19 z-score
CAGATTTGGCATATCTATTTGTGCTAG: 0.522 z-score
GACGATATCTGTTTCGAGACGTGCTAG: 2.42 z-score
CATATTCTCTTCTTGCATCTGTGCTAG: 2.47 z-score
TTAGGACTGCGGTATCGGTTAGTGCTA: -0.131 z-score
